{"data": "Experimental data from different studies", "note": "A part holds a random share of what one study measured. Changes are numbered by the printed parent chain."}
{"data": "Set 1", "target": "CCNB2, cyclin fold, Cln2 fusion (human)", "method": "yeast growth competition, sequencing", "sample": "yeast", "notes": "weak parent motif", "reference": "not given", "reading": "higher = stronger binding", "parent": "CDAN1 docking peptide (human); RGARSQLFPPTEA"}
{"Variant": "R1A", "normalised enrichment score": 0.176}
{"Variant": "L7A", "normalised enrichment score": 0.391}
{"Variant": "P10A", "normalised enrichment score": 0.221}
{"Variant": "P9A", "normalised enrichment score": 0.563}
{"Variant": "Q6A", "normalised enrichment score": 0.0665}
{"data": "Set 2", "target": "XBP1, bZIP domain (human)", "method": "DHFR protein complementation", "sample": "yeast", "notes": "single substitutions, most at no-binding floor", "reference": "wild-type JUN-FOS pair", "reading": "higher = stronger binding", "parent": "JUN, bZIP domain (human); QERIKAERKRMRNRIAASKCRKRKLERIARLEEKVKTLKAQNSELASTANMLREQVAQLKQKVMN; partner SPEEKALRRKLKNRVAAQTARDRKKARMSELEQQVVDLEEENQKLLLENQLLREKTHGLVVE"}
{"Variant": "K39V", "binding fitness [natural log]": -1.22}
{"Variant": "R30N", "binding fitness [natural log]": -0.883}
{"Variant": "N42C", "binding fitness [natural log]": -1.39}
{"Variant": "A29T", "binding fitness [natural log]": -0.957}
{"Variant": "A49F", "binding fitness [natural log]": -1.2}
{"Variant": "A46H", "binding fitness [natural log]": -0.569}
{"Variant": "V35I", "binding fitness [natural log]": -0.527}
{"Variant": "K34A", "binding fitness [natural log]": -1.27}
{"Variant": "L45E", "binding fitness [natural log]": -1.48}
{"Variant": "E32Y", "binding fitness [natural log]": -1.16}
{"data": "Set 3", "target": "Prothrombin, mature alpha-thrombin (F2, Homo sapiens, UniProt P00734)", "method": "aptamer microarray, sandwich", "form": "DNA with 2'F-ANA", "sample": "in vitro", "tested at": "200 nM", "notes": "whole 15-mer aptamer, many near background", "with": "Cy3 exosite-II aptamer, 400 nM", "reading": "higher = stronger binding", "oligonucleotide": "GGTTGGTGTGGTTGG"}
{"Modification": "2'F-ANA at 1 3 5 7 9 13", "mean fluorescence intensity": "58.5 a.u."}
{"Modification": "2'F-ANA at 2 3 5 6 8 9 11 12 13 14", "mean fluorescence intensity": "76.1 a.u."}
{"Modification": "2'F-ANA at 5 6 7 10 11 12 14", "mean fluorescence intensity": "48.3 a.u."}
{"Modification": "2'F-ANA at 1 3 7 8 9 10 13 15", "mean fluorescence intensity": "116 a.u."}
{"Modification": "2'F-ANA at 1 3 6 7 8 10 11 14 15", "mean fluorescence intensity": "63.8 a.u."}
{"Modification": "2'F-ANA at 1 2 5 7 8 9 14 15", "mean fluorescence intensity": "46 a.u."}
{"Modification": "2'F-ANA at 3 6 13 15", "mean fluorescence intensity": "827 a.u."}
{"Modification": "2'F-ANA at 1 2 4 7 10 12 13 14 15", "mean fluorescence intensity": "58.7 a.u."}
{"Modification": "2'F-ANA at 4 5 7 9 12 14 15", "mean fluorescence intensity": "46.2 a.u."}
{"Modification": "2'F-ANA at 2 3 4 5 9 10 12 15", "mean fluorescence intensity": "60.4 a.u."}
{"Modification": "2'F-ANA at 2 7 8 9 11 13 14 15", "mean fluorescence intensity": "141 a.u."}
{"Modification": "2'F-ANA at 2 3 4 5 6 8 10 15", "mean fluorescence intensity": "55.4 a.u."}
{"Modification": "2'F-ANA at 2 3 4 5 6 8 10 11 12 14 15", "mean fluorescence intensity": "50 a.u."}
{"Modification": "2'F-ANA at 1 2 4 6 7 11 13 15", "mean fluorescence intensity": "72 a.u."}
{"Modification": "2'F-ANA at 3 5 9 10 11 12 14 15", "mean fluorescence intensity": "56.3 a.u."}
{"data": "Mixed results"}
{"Substance": "PhoQ, residues 284 288 289 292 302 303 MLMVEA", "target": "PhoP, residues 12 14 15 18 19 SEGLL (Escherichia coli, UniProt P23836)", "test": "Sort-seq, refers to: YFP reporter", "system": "E. coli", "conditions": "PhoQ-PhoP variant library, with: 10 µM Mg2+", "how to read": "reference: high Mg2+ state, higher = stronger signaling", "endpoint": "fold induction", "result": 18.5}
{"note": "Excerpt of the above (set 3):"}
{"Modification": "2'F-ANA at 5 6 7 10 11 12 14", "mean fluorescence intensity": "48.3 a.u."}
{"Modification": "2'F-ANA at 1 3 7 8 9 10 13 15", "mean fluorescence intensity": "116 a.u."}
